Experimental data of several laboratories.
Every numbered part comes from another study and shows a few of its results, in no order. “And” joins repeats or separate records; there may be more than shown.
Sequence of UniProt Q8WU08 (whole entry, looked up): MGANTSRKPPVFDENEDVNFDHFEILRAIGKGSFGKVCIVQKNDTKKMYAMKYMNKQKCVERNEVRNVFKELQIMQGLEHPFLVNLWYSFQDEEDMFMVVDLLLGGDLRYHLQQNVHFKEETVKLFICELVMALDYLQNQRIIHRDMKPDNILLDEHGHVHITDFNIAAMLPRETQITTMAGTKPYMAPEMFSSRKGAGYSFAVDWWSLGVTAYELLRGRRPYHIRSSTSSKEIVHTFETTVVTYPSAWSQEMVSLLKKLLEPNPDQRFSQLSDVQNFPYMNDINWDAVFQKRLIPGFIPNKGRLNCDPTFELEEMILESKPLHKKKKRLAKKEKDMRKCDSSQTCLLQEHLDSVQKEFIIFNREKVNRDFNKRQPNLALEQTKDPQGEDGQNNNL
Sequence of UniProt P45985 (whole entry, looked up): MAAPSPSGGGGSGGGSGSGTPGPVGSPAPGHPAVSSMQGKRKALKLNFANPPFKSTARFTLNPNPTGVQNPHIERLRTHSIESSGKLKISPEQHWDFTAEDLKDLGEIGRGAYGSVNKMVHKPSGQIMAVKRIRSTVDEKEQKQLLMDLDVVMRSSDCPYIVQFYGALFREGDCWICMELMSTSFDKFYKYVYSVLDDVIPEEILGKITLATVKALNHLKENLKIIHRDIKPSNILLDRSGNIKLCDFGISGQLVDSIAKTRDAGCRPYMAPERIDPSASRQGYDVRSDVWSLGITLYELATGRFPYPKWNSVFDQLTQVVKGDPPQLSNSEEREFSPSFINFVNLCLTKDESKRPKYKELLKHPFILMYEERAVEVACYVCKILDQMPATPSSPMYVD
Sequence of UniProt O00506 (whole entry, looked up): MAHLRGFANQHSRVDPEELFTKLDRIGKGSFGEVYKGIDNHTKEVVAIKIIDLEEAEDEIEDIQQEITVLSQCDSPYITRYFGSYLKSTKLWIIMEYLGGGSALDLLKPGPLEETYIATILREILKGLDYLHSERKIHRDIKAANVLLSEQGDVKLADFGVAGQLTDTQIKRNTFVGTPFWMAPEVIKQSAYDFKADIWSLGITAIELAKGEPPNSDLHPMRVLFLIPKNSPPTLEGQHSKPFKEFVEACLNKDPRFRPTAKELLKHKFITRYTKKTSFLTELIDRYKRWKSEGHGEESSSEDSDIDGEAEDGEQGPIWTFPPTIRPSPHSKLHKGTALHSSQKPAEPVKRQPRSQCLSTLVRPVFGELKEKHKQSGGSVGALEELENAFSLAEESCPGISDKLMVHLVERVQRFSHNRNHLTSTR
Sequence of UniProt P08922 (whole entry, looked up): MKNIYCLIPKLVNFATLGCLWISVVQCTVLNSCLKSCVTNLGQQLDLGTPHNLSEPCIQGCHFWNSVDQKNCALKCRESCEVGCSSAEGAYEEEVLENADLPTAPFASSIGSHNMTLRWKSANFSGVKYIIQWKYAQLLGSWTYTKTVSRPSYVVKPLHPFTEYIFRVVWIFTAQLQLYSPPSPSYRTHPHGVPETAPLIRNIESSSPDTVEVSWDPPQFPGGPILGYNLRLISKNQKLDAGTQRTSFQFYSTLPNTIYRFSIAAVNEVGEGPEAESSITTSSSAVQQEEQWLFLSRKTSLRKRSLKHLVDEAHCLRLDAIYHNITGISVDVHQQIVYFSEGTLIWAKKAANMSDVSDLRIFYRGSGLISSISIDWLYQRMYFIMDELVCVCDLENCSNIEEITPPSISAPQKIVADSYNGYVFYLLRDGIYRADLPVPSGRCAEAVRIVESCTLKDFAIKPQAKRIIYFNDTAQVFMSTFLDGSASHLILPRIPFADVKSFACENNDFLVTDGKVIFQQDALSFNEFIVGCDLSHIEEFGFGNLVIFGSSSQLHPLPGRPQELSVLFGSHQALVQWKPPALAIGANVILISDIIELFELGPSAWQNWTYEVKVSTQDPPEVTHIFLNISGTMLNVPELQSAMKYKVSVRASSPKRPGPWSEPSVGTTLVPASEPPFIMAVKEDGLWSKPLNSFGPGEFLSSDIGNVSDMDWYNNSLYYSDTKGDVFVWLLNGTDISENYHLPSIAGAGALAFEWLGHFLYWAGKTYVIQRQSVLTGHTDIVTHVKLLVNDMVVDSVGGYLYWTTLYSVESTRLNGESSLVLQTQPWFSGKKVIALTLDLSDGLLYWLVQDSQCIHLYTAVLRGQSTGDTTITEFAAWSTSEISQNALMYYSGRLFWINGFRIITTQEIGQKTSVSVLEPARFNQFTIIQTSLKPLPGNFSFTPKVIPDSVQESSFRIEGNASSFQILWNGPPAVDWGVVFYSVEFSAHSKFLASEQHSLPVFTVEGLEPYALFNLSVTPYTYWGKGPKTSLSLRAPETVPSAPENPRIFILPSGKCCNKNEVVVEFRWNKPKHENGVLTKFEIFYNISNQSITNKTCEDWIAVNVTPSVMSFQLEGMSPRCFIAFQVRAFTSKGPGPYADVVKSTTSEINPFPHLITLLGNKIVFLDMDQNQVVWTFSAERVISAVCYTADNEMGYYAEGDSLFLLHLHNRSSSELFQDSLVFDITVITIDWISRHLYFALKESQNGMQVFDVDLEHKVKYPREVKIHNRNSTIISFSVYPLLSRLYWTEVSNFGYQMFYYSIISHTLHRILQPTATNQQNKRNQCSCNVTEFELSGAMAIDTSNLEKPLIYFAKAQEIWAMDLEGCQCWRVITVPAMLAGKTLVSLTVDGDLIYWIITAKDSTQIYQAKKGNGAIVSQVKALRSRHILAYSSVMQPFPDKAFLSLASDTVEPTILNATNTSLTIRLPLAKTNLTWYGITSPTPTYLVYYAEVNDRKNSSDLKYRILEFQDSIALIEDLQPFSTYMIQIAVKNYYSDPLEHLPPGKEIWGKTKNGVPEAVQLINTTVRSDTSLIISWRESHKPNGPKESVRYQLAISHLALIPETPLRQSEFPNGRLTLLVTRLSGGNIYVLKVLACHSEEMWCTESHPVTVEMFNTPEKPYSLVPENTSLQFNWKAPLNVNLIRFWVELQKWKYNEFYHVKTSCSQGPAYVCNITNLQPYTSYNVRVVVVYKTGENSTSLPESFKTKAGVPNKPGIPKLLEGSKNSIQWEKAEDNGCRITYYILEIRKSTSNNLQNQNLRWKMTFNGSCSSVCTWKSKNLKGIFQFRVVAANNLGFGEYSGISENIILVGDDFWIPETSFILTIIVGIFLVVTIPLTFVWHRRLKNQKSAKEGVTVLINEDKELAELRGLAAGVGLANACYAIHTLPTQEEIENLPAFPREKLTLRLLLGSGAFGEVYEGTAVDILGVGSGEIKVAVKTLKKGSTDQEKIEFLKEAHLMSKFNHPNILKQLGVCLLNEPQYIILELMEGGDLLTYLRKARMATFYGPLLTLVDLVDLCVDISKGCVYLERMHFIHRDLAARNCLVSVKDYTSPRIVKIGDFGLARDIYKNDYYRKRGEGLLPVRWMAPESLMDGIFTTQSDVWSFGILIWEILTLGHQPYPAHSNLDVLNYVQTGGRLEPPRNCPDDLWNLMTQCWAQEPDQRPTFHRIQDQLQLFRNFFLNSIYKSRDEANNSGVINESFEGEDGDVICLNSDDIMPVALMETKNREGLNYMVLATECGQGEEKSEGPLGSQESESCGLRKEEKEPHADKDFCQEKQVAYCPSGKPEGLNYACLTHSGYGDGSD

Study 1
Target: Calcium/calmodulin-dependent protein kinase type 1 (CAMK1, Homo sapiens, UniProt Q14012)
Sequence of UniProt Q14012 (whole entry, looked up): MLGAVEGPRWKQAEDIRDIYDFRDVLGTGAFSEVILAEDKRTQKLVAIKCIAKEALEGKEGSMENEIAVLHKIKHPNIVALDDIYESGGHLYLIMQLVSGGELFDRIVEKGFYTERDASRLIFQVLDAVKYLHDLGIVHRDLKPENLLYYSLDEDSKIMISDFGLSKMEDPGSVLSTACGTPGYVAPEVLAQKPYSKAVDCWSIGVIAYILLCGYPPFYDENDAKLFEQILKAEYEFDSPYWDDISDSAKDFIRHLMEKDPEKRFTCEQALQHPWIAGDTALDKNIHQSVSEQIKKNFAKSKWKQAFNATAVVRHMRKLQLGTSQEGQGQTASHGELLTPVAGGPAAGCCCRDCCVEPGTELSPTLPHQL
Observed: enzyme activity
Mode: inhibitor
Concentration: 0.5 µM
Relative to: control
Measurement: remaining activity
CO[C@H]1C[C@@H]2CC[C@@H](C)[C@@](O)(O2)C(=O)C(=O)N2CCCC[C@H]2C(=O)O[C@H]([C@H](C)C[C@@H]2CC[C@@H](O)[C@H](OC)C2)CC(=O)[C@H](C)/C=C(\C)[C@@H](O)[C@@H](OC)C(=O)[C@H](C)C[C@H](C)/C=C/C=C/C=C/1C: 111%
Cc1ccc(Nc2nccc(N(C)c3ccc4c(C)n(C)nc4c3)n2)cc1S(N)(=O)=O: 87.4%
O=c1c2ccccc2[nH]c(=S)n1CCN1CCC(=C(c2ccc(F)cc2)c2ccc(F)cc2)CC1: 98.6%
O=C1NC(=O)C(c2cn(CCCO)c3ncccc23)=C1c1cnccn1: 101%
COc1cc2nccc(Oc3ccc(NC(=S)NC(=O)c4ccccc4C)cc3)c2cc1OC: 101%
Nc1[nH]nc2nc3ccccc3nc12: 94.4%
O=C(CCCc1ccc(-c2ccccc2F)cc1)Nc1ccc(O)cc1: 101%
Nc1ccc2ncnc(NCCc3ccc(Oc4ccccc4)cc3)c2c1: 107%
NCCNc1ncc(C(N)=O)c(Nc2cccc(C(F)(F)F)c2)n1: 60.9%
Cn1sc(=O)n(Cc2ccccc2)c1=O: 100%
COc1ccc(CNC(=O)Nc2ncc([N+](=O)[O-])s2)cc1: 101%
Cc1cccc(-c2[nH]c(C(C)(C)C)nc2-c2ccc3c(c2)OCO3)n1: 99.8%
COc1ccc(OC)c2c(=S)c3ccccc3[nH]c12: 75.2%
Cc1ccc(NC(=O)c2ccc(CN3CCN(C)CC3)cc2)cc1Nc1nc(-c2cccnc2)cs1: 102%

Study 2
Host: mouse
Matrix: microsomes or S9
Concentration: 2 µM
Time: 0.5 h
Measurement: remaining compound
COc1cc(OC)c(CC2C(=O)N(c3ccccc3)c3ccccc32)c(OC)c1 (stereo not drawn): 0.646%
Cc1csc(-c2cc(NC(=O)c3ccc(F)cc3F)c(C)s2)n1: 1.02%
O=S(=O)(/C(=C(\F)Oc1ccccc1)c1ccccc1)c1ccccc1: > 100%

Study 3
Target: Beta-1 adrenergic receptor (ADRB1, Homo sapiens, UniProt P08588)
Sequence of UniProt P08588 (whole entry, looked up): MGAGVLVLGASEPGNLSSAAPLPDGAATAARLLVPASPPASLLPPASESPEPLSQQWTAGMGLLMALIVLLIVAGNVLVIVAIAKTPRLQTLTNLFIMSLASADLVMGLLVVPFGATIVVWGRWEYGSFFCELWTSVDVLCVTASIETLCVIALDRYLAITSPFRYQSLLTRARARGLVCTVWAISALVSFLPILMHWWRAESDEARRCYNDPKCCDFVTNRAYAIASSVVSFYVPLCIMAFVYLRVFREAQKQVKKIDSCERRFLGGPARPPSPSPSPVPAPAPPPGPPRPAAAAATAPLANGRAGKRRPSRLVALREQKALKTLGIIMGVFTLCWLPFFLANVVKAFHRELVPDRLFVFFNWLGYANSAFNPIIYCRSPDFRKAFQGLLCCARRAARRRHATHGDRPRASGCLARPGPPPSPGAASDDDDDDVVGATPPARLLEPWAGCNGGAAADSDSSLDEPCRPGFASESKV
Mode: antagonist
Measurement: IC50
Cc1csc(-c2nnc(Nc3ccc(Oc4ncccc4-c4ccnc(N)n4)cc3)c3ccccc23)c1: ≥ 100 µM
COc1cc2c3c(c1)C1(C(=O)N3C(C)(C)C=C2C)C(C#N)=C(N)Oc2cc(O)ccc21 (stereo not drawn): ≥ 100 µM
CN1CCN(C)c2cc(-c3ccc(N4CCOCC4)cc3)ncc2C1: ≥ 100 µM
COc1ccc(CC(C)(C)NC[C@H](O)c2cc(O)cc3c2OCC(=O)N3)cc1: ≥ 100 µM
CC(=O)N1CCN(c2ncccc2-c2cc(-c3ccccc3)nc3c(C)noc23)CC1: ≥ 100 µM

Study 4
Structure (SMILES): COc1ccc2c(c1)O[C@@H](c1ccc(OC)c(OC)c1)C[C@H]2NC(=O)C1(c2ccc3c(c2)OC(F)(F)O3)CC1
Observed: cell-free assay
Technique: competition with immobilised ligand
Concentration: 1 µM
Measurement: remaining binding
ROS1 (Homo sapiens, UniProt P08922): 97%
STK32A (Homo sapiens, UniProt Q8WU08): 100%
STK25 (Homo sapiens, UniProt O00506): 100%
MAP2K4 (Homo sapiens, UniProt P45985): 92%

Study 5
Organism: Sarcocystis neurona
Observed: parasite growth
Concentration: 10 µM
Time: 96 h
Notes: first screen
Relative to: untreated
Measurement: log2 fold change
CCCc1c(OCCCCc2nnn[nH]2)ccc(C(C)=O)c1O: 0.14
CC1=C(CC(=O)O)c2cc(F)ccc2/C1=C\c1ccc([S+](C)[O-])cc1 (stereo not drawn): 0.32
CCCOc1ccc(C(=O)OCCN(CC)CC)cc1N: 0.35

Further values, each from its own experiment
CC(=O)N[C@@H](Cc1c[nH]c2ccccc12)C(=O)N[C@@H](CCC(=O)C=[N+]=[N-])C(=O)OC(C)C — ribitol level (UPLC-MS/MS; EL4 tumor, C57BL/6 CES1-/- mice, tumor; subcutaneous, 0.3 mg/kg DON equivalent daily, 5 days; higher = more metabolite): 1.02e+06 a.u. and 1.07e+06 a.u. and 1.19e+06 a.u. and 1.28e+06 a.u. and 1.32e+06 a.u.

Some of these lines once more (study 1):
NCCNc1ncc(C(N)=O)c(Nc2cccc(C(F)(F)F)c2)n1: 60.9%
COc1cc2nccc(Oc3ccc(NC(=S)NC(=O)c4ccccc4C)cc3)c2cc1OC: 101%
